# Measurements gathered from unrelated publications.
# Lines come from different studies, so protocols differ.
# Organism: Escherichia coli
Structure (SMILES),assay,test system,setting,MIC
CC[C@H](C)[C@H](NC(=O)[C@@H](NC(=O)[C@H](C)NC(=O)[C@@H](NC(=O)[C@H](C)NC(=O)[C@@H]1CCCN1C(=O)CNC(=O)[C@H](C)NC(=O)[C@H](CC(N)=O)NC(=O)[C@H](CCCCN)NC(=O)[C@@H](NC(=O)[C@H](C)NC(=O)[C@H](CC(N)=O)NC(=O)[C@H](CCCNC(=N)N)NC(=O)[C@@H](NC(=O)[C@H](CCCNC(=N)N)NC(=O)[C@H](CCCNC(=N)N)NC(=O)[C@@H](NC(=O)[C@@H](NC(=O)[C@H](CCCCN)NC(=O)[C@H](CCC(=O)O)NC(=O)[C@H](CC(C)C)NC(=O)[C@H](CCCCN)NC(=O)[C@H](CCCCN)NC(=O)[C@H](CC(C)C)NC(=O)[C@@H]1CCCN1C(=O)[C@H](CCCCN)NC(=O)[C@H](Cc1c[nH]c2ccccc12)NC(=O)[C@@H](N)CCCNC(=N)N)C(C)C)C(C)C)C(C)C)C(C)C)C(C)C)C(C)C)C(=O)NCC(=O)N[C@@H](CC(=O)O)C(=O)O,broth microdilution,"K88, Mueller-Hinton broth",37 °C,4.39 µg/mL
CC[C@H](C)[C@H](NC(=O)[C@@H](CCCNC(=N)N)NC(=O)[C@H](CCCNC(=N)N)NC(=O)[C@H](CCC(=O)O)NC(=O)[C@H](Cc1c[nH]c2ccccc12)NC(=O)[C@H](CCCNC(=N)N)NC(=O)[C@@H]1CCCN1C(=O)[C@H](CCCNC(=N)N)NC(=O)[C@@H]1CCCN1C(=O)[C@H](CC(C)C)NC(=O)[C@H](Cc1ccc(O)cc1)NC(=O)[C@@H]1CCCN1C(=O)[C@@H]1CCCN1C(=O)[C@H](CCCCN)NC(=O)[C@H](CC(=O)O)NC(=O)[C@@H](N)C(C)C)C(=O)N[C@@H](Cc1ccc(O)cc1)C(=O)N[C@@H](CC(N)=O)C(=O)N[C@H](CCCNC(=N)N)C(N)=O,broth microdilution,ATCC 25922,"18 h, 37 °C, 25% MHB2",32 µg/mL
Cn1nc(CCN)c(=O)c2c(=O)[nH]c(N)nc21,"microbial growth, broth dilution",BW25113,18 h,> 100 µg/mL
CC[C@H](C)[C@H](N)C(=O)N[C@@H](CCCNC(=N)N)C(=O)N[C@H](C(=O)N[C@@H](Cc1c[nH]c2ccccc12)C(=O)N[C@@H](CCCCN)C(=O)N[C@@H](CCCCN)C(=O)N[C@H](C(=O)N[C@H](C(=O)N[C@@H](CCCNC(=N)N)C(=O)N[C@@H](CCCCN)C(=O)N[C@@H](Cc1c[nH]c2ccccc12)C(=O)N[C@@H](CCCCN)C(=O)N[C@@H](C)C(=O)N[C@H](C(=O)N[C@@H](Cc1c[nH]c2ccccc12)C(=O)N[C@@H](Cc1c[nH]cn1)C(N)=O)[C@@H](C)CC)C(C)C)[C@@H](C)CC)C(C)C,broth dilution,"ATCC 25922, Mueller-Hinton broth","24 h, 37 °C",12.5 µM
CC(C)C[C@@H]1NC(=O)[C@H](CCCCN)NC(=O)CNC(=O)[C@H]2CCCN2C(=O)[C@H](CCCCN)NC(=O)[C@H](CC(C)C)NC(=O)[C@H](CCCCN)NC(=O)[C@H](CC(C)C)NC(=O)[C@H](CCCCN)NC(=O)C(N)CCC=CCCCC(C(N)=O)NC(=O)[C@H](CCCCN)NC(=O)[C@H](CC(C)C)NC(=O)[C@H](CCCCN)NC1=O (stereo partly shown),broth microdilution,"ATCC 25922, Mueller-Hinton broth","18 h, 37 °C",8 µM
CC(C)C[C@H](NC(=O)[C@@H](NC(=O)[C@H](CCCCN)NC(=O)[C@H](CCCCN)NC(=O)[C@H](CC(C)C)NC(=O)[C@H](Cc1c[nH]c2ccccc12)NC(=O)[C@H](CCCCN)NC(=O)[C@H](CC(C)C)NC(=O)[C@H](CC(C)C)NC(=O)[C@H](CCCCN)NC(=O)[C@H](CCCCN)NC(=O)[C@@H](N)C(C)C)C(C)C)C(N)=O,,,"24 h, 37 °C, Mueller-Hinton broth, NaCl 150 mM",64 µM
N=C(N)NCCC[C@@H]1NC(=O)[C@@H](CCCNC(=N)N)NC(=O)[C@H](CCCNC(=N)N)NC(=O)[C@@H](C(c2ccccc2)c2ccccc2)NC(=O)[C@@H](C(c2ccccc2)c2ccccc2)NC(=O)[C@@H](C(c2ccccc2)c2ccccc2)NC(=O)[C@@H](CCCNC(=N)N)NC1=O,,"ATCC BAA-2452, NDM-1 CRE",,16 µg/mL
CC[C@H](C)[C@@H]1NC(=O)[C@@H](CC(C)C)NC(=O)[C@H](CCN)NC(=O)[C@@H](NC(=O)[C@@H](CO)NC(=O)[C@@H](NC(=O)[C@H](CCN)NC(=O)c2ccc(-c3ccccc3)cc2)[C@@H](C)O)CCNC(=O)[C@H](CC(C)C)NC(=O)[C@H](CCN)NC(=O)[C@H](CCN)NC1=O,broth microdilution,"mcr-1, colistin-resistant",,4 to 8 µg/mL
CC[C@H](C)[C@H](NC(=O)[C@H](CCCNC(=N)N)NC(=O)[C@H]1CCCN1C(=O)[C@H](Cc1ccc(O)cc1)NC(=O)[C@@H](NC(=O)[C@@H](NC(=O)[C@H](CCCNC(=N)N)NC(=O)[C@H](Cc1ccccc1)NC(=O)[C@@H](NC(=O)[C@H](Cc1c[nH]c2ccccc12)NC(=O)[C@H](Cc1c[nH]c2ccccc12)NC(=O)c1ccccc1)C(C)C)C(C)C)C(C)C)C(=O)N[C@H](C(=O)N[C@@H](Cc1ccc(O)cc1)C(=O)N[C@H](C(=O)N[C@@H](CCCNC(=N)N)C(=O)N[C@@H](CCCNC(=N)N)C(=O)N[C@@H](CCCNC(=N)N)C(=O)N[C@@H](Cc1c[nH]c2ccccc12)C(=O)N[C@H](C(=O)NCC(=O)N1CCC[C@H]1C(=O)N[C@@H](CCCCN)C(=O)N[C@@H](CCCCN)C(N)=O)[C@@H](C)O)C(C)C)C(C)C,"bacterial growth, broth dilution, OD600","DH5α, LB medium","16 h, 37 °C",100 µM
C=CCO/N=C(\C(=O)N[C@@H]1C(=O)N(OS(=O)(=O)O)C1(C)C)c1csc(N)n1,agar dilution,"CDC 1001728, NDM-1",,4 µg/mL
CC[C@H](C)[C@H](NC(=O)[C@H](Cc1c[nH]c2ccccc12)NC(=O)c1ccccc1)C(=O)N[C@H](C(=O)N[C@@H](Cc1ccc(O)cc1)C(=O)N[C@@H](CCCCN)C(=O)N[C@@H](Cc1c[nH]c2ccccc12)C(=O)N[C@H](CCCNC(=N)N)C(=O)N[C@@H](CCCNC(=N)N)C(=O)N[C@@H](CCCCN)C(=O)N[C@H](C(=O)N[C@H](C(=O)N[C@@H](CCCNC(=N)N)C(=O)N[C@@H](Cc1ccc(O)cc1)C(=O)N[C@@H](Cc1c[nH]c2ccccc12)C(=O)N[C@H](C(=O)NCC(=O)N[C@@H](CCCCN)C(=O)N[C@@H](CCCNC(=N)N)C(N)=O)[C@@H](C)O)C(C)C)C(C)C)C(C)C,,DH5α,"16 h, 37 °C",> 100 µM
CC[C@H](C)[C@H](NC(=O)[C@@H](CCCNC(=N)N)NC(=O)[C@H](CCCNC(=N)N)NC(=O)[C@H](Cc1c[nH]c2ccccc12)NC(=O)[C@H](Cc1c[nH]c2ccccc12)NC(=O)[C@H](CCCNC(=N)N)NC(=O)[C@@H]1CCCN1C(=O)[C@H](CCCNC(=N)N)NC(=O)[C@@H]1CCCN1C(=O)[C@H](CC(C)C)NC(=O)[C@H](Cc1ccc(O)cc1)NC(=O)[C@@H]1CCCN1C(=O)[C@@H]1CCCN1C(=O)[C@H](CCCCN)NC(=O)[C@H](CC(=O)O)NC(=O)[C@@H](N)C(C)C)C(=O)N[C@@H](Cc1ccc(O)cc1)C(=O)N[C@@H](CC(N)=O)C(=O)N[C@H](CCCNC(=N)N)C(N)=O,broth microdilution,BW25113,"18 h, 37 °C, 25% MHB2",16 µg/mL
CC(C)C[C@H](NC(=O)[C@@H](NC(=O)[C@H](CCCCN)NC(=O)[C@H](CCCCN)NC(=O)[C@H](CC(C)C)NC(=O)[C@H](Cc1c[nH]c2ccccc12)NC(=O)[C@H](CCCCN)NC(=O)[C@H](Cc1c[nH]c2ccccc12)NC(=O)[C@H](CC(C)C)NC(=O)[C@H](CCCCN)NC(=O)[C@H](CCCCN)NC(=O)[C@@H](N)C(C)C)C(C)C)C(N)=O,,,"24 h, 37 °C, Mueller-Hinton broth, human serum 10%",32 µM
CC[C@H](C)[C@H](NC(=O)[C@H](Cc1c[nH]c2ccccc12)NC(=O)[C@H](CCCNC(=N)N)NC(=O)[C@@H]1CCCN1C(=O)[C@H](CCCNC(=N)N)NC(=O)[C@@H]1CCCN1C(=O)[C@H](CC(C)C)NC(=O)[C@H](Cc1ccc(O)cc1)NC(=O)[C@@H]1CCCN1C(=O)[C@@H]1CCCN1C(=O)[C@H](CCCCN)NC(=O)[C@H](CC(=O)O)NC(=O)[C@@H](N)C(C)C)C(=O)N[C@@H](CCCNC(=N)N)C(=O)N[C@H](CCCNC(=N)N)C(=O)N[C@H](C(=O)N[C@@H](Cc1ccc(O)cc1)C(=O)N[C@@H](CC(N)=O)C(=O)N[C@H](CCCNC(=N)N)C(N)=O)[C@@H](C)CC,broth microdilution,MC4100,"18 h, 37 °C, 25% MHB2",32 µg/mL
CC(C)C[C@H](NC(=O)[C@H](CCCNC(=N)N)NC(=O)CNC(=O)CNC(=O)[C@@H](N)CCCNC(=N)N)C(=O)N[C@H]1CSSC[C@@H](C(=O)N[C@H](C(=O)NCC(=O)N[C@@H](CCCNC(=N)N)C(N)=O)C(C)C)NC(=O)[C@H](C(C)C)NC(=O)[C@@H]2CSSC[C@H](NC(=O)[C@H](Cc3ccc(O)cc3)NC1=O)C(=O)N[C@@H](CCCNC(=N)N)C(=O)N[C@@H](CCCNC(=N)N)C(=O)N[C@@H](CCCNC(=N)N)C(=O)N[C@@H](Cc1ccccc1)C(=O)N2,broth dilution,K12 BW25113,,1.8 µM
CC[C@H](C)[C@H](NC(=O)[C@@H](CCCNC(=N)N)NC(=O)[C@H](CCCNC(=N)N)NC(=O)[C@H](CC(=O)O)NC(=O)[C@H](Cc1c[nH]c2ccccc12)NC(=O)[C@H](CCCNC(=N)N)NC(=O)[C@@H]1CCCN1C(=O)[C@H](CCCNC(=N)N)NC(=O)[C@@H]1CCCN1C(=O)[C@H](CC(C)C)NC(=O)[C@H](Cc1ccc(O)cc1)NC(=O)[C@@H]1CCCN1C(=O)[C@@H]1CCCN1C(=O)[C@H](CCCCN)NC(=O)[C@H](CC(=O)O)NC(=O)[C@@H](N)C(C)C)C(=O)N[C@@H](Cc1ccc(O)cc1)C(=O)N[C@@H](CC(N)=O)C(=O)N[C@H](CCCNC(=N)N)C(N)=O,broth microdilution,BW25113,"18 h, 37 °C, 25% MHB2",8 µg/mL
CO[C@@H](C(N)=O)[C@H](NC(=O)c1ccc(NC(=O)[C@@H](N)Cc2ccc(O)cc2)cc1)C(=O)Nc1ccc(C(=O)Nc2ccc(C(=O)Nc3ccc(C(=O)O)c(O)c3OC(C)C)c(O)c2OC(C)C)cc1,,monooxygenase clone,"16 h, 37 °C",1 µg/mL
CC[C@H](C)[C@H](NC(=O)[C@@H](CCCNC(=N)N)NC(=O)[C@H](CCCNC(=N)N)NC(=O)[C@@H]1CCCN1C(=O)[C@@H]1CCCN1C(=O)[C@H](CCCNC(=N)N)NC(=O)[C@@H]1CCCN1C(=O)[C@H](CCCNC(=N)N)NC(=O)[C@@H]1CCCN1C(=O)[C@H](CC(C)C)NC(=O)[C@H](Cc1ccc(O)cc1)NC(=O)[C@H](Cc1ccccc1)NC(=O)[C@@H]1CCCN1C(=O)[C@H](CCCCN)NC(=O)[C@H](CC(=O)O)NC(=O)[C@@H](N)C(C)C)C(=O)N[C@@H](Cc1ccc(O)cc1)C(=O)N[C@@H](CC(N)=O)C(=O)N[C@H](CCCNC(=N)N)C(N)=O,broth microdilution,MC4100,"18 h, 37 °C, 25% MHB2",16 µg/mL
C[C@H](CS)C(=O)Nc1cccc(-c2nn[nH]n2)c1,,DH5a pET28-lacUV5-VIM-2,"50 µM, no meropenem",> 64 µg/mL

# A few entries again:
Structure (SMILES),assay,test system,setting,MIC
CC(C)C[C@@H]1NC(=O)[C@H](CCCCN)NC(=O)CNC(=O)[C@H]2CCCN2C(=O)[C@H](CCCCN)NC(=O)[C@H](CC(C)C)NC(=O)[C@H](CCCCN)NC(=O)[C@H](CC(C)C)NC(=O)[C@H](CCCCN)NC(=O)C(N)CCC=CCCCC(C(N)=O)NC(=O)[C@H](CCCCN)NC(=O)[C@H](CC(C)C)NC(=O)[C@H](CCCCN)NC1=O (stereo partly shown),broth microdilution,"ATCC 25922, Mueller-Hinton broth","18 h, 37 °C",8 µM
CC[C@H](C)[C@@H]1NC(=O)[C@@H](CC(C)C)NC(=O)[C@H](CCN)NC(=O)[C@@H](NC(=O)[C@@H](CO)NC(=O)[C@@H](NC(=O)[C@H](CCN)NC(=O)c2ccc(-c3ccccc3)cc2)[C@@H](C)O)CCNC(=O)[C@H](CC(C)C)NC(=O)[C@H](CCN)NC(=O)[C@H](CCN)NC1=O,broth microdilution,"mcr-1, colistin-resistant",,4 to 8 µg/mL
CC[C@H](C)[C@H](NC(=O)[C@@H](CCCNC(=N)N)NC(=O)[C@H](CCCNC(=N)N)NC(=O)[C@H](CC(=O)O)NC(=O)[C@H](Cc1c[nH]c2ccccc12)NC(=O)[C@H](CCCNC(=N)N)NC(=O)[C@@H]1CCCN1C(=O)[C@H](CCCNC(=N)N)NC(=O)[C@@H]1CCCN1C(=O)[C@H](CC(C)C)NC(=O)[C@H](Cc1ccc(O)cc1)NC(=O)[C@@H]1CCCN1C(=O)[C@@H]1CCCN1C(=O)[C@H](CCCCN)NC(=O)[C@H](CC(=O)O)NC(=O)[C@@H](N)C(C)C)C(=O)N[C@@H](Cc1ccc(O)cc1)C(=O)N[C@@H](CC(N)=O)C(=O)N[C@H](CCCNC(=N)N)C(N)=O,broth microdilution,BW25113,"18 h, 37 °C, 25% MHB2",8 µg/mL
